# Published values collected from several papers.
# Numbered parts are unrelated; each lists some results of a single study.

# Series 1
# Target: Ras GTPase-activating protein-binding protein 1, RRM domain (G3BP1, Homo sapiens, UniProt Q13283)
# Chain of UniProt Q13283 (whole entry, looked up): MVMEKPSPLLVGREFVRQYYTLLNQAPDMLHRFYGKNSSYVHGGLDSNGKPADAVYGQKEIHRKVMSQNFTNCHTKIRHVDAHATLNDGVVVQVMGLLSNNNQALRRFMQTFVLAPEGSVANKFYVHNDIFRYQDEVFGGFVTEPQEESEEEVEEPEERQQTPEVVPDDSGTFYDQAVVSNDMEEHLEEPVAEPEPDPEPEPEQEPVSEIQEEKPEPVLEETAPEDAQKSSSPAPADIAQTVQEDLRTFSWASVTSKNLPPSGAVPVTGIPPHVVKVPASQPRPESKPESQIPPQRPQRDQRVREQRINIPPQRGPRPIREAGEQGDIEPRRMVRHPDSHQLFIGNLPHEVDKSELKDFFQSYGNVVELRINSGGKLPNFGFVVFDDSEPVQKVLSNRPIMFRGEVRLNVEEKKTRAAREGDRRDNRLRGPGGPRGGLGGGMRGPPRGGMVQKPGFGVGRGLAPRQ
# Method: RNA Bind-n-Seq
# Molecule type: RNA
# Matrix: in vitro
# Concentration: 1 µM
# Setting: whole 134-nt RNA, ends assumed
# With: 150 mM KCl
# Reference: input library
# Direction: higher = stronger binding
# Shared flanks, not repeated: GGGAGUUCUACAGUCCGACGAUC … UGGAAUUCUCGGGUGUCAAGG
Oligonucleotide,log2 enrichment
CUGUGCUACACAUCGUAUGUACCGAAUCGGGGUUUUUGGGGAAAAAAAGGGGAAAAAGGGGAAAGUAUUAUGUUACGCCGUUCGGAUCUG,0.757
CACAGACAACACGCACCCACACAGACACAGAGGGAAGGGGUUGGGAUGGGGACAGGGUGCACAGCAGGGCGGGGUAGGACCCCAGCCCGU,-0.393
UGGGAGGUGGAUUUUGUUUAUUUUUUUCGCUCAUUUCCAGGGGUGGGAAUUUUUUUUUAAUAUGUGUCAUGAAUAAAGUUGUUUUUGAAA,1.72
CCUGUGCUACACAUCGUAUGUACCGAAUCGGAAAAAAAGGAAAAAAAGGGAAAAAAAGGGGAAAGUAUUAUGUUACGCCGUUCGGAUCUG,0.135
UCCUCAAGUCCUGUGCUACACAUCGUAUGUACCGAAUCGGGAGGAGGAGGGAAAGUAUUAUGUUACGCCGUUCGGAUCUGCACUUCCAGC,-0.311
UGGGAGGUGGAUUUUGUUUAUUUUUUUAGCUCAUUUCCAUGGGUGGGAAUUUUUUUUUAAUAUGUGUCAUGAAUAAAGUUGUUUUUGAAA,1.59
ACCAUGCAGGUGGGCAUCUUUGGGAAGUGGGGCAAGGGGGGGAUAGGGAGGGGGGUAACACUUUGGGAACAGGUAAACCCAGGUCGUUUC,-0.619
GCAGGAAGUAAAAACAAAUGGAAAUGCUUCGGAUAGUGCCAGGGGUGGGGGUUGCUAAGGAAAGGGUGGGAUGGGAGUGGGUAAAGAGUU,0.83
UUGCGGCAGCCGCCCCCUUCUGCGCGGUCACGCCGAGCCAGCGCCUGGGCCUGGAACCGGGCCGUAGCCCCCCCAGUUUCGCCCACCACC,-0.557
CUCAAGUCCUGUGCUACACAUCGUAUGUACCGAAUCGGGUUUGGGUGGGAGGGAAAGUAUUAUGUUACGCCGUUCGGAUCUGCACUUCCA,1.21
GAAAUACCAUCGGAAGACGAUGGGACGGUGCUGCUCUCCACGGUUACAGCCCAGUUUCCAGGGGCGUGUGGGCUUCGCUACAGGAAUCCA,-0.259
AAGUCCUGUGCUACACAUCGUAUGUACCGAAUCGGGUUUGGGUUUUUUUGGGUGGGAAAGUAUUAUGUUACGCCGUUCGGAUCUGCACUU,0.513
ACCAUGCAGGUGGGCAUCUUUGAAAAGUGGGGCAAGGGGGGGAUAGGGAGGGGGGUAACACUUUGGGAACAGGUGGUCCCAGGUCGUUUC,-0.532
ACCAUGCAGGUGGGCAUCUUUGGGAAGUGGGGCAAGGGGGGGAUAGGGAGGGGGGUAACACUUUGGGAACAGGUGGUCCCGGGUCGUUUC,0.668

# Series 2
# Target: Hepatocyte nuclear factor 3-alpha (Foxa1, Mus musculus, UniProt P35582, residues 1-468, full length assumed)
# Chain of UniProt P35582 (whole entry, looked up): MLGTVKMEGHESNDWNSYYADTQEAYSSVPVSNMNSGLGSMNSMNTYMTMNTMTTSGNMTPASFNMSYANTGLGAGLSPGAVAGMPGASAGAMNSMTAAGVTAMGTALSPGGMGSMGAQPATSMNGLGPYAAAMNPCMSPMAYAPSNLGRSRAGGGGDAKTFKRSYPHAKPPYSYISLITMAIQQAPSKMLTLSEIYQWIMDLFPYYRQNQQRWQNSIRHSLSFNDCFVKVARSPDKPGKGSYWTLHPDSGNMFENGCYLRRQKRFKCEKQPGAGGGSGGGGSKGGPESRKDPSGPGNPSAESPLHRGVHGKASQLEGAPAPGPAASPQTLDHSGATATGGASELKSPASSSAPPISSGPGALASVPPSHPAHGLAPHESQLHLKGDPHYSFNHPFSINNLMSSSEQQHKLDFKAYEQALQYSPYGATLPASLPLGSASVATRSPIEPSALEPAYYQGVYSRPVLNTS
# Method: EMSA with sequencing
# Molecule type: double-stranded DNA, one strand shown
# Matrix: in vitro
# Concentration: 10 and 20 nM
# Setting: whole designed probe, mean of two concentrations, ends assumed
# Reference: negative control set to 0
# Direction: higher = stronger binding
# Shared flanks, not repeated: GTGAGCGGTGCCCATTGATGGGGAAC … TTTCACTGGGATCGTGGGGAC
Oligonucleotide,normalised bound fraction
TCATGAAAGGCTTTGCATGCCATTTTAACAAGTACGGGCTTTATCTTAACCCTCTAGGAAACAGGGAGGCACATGAACACCCTAAGTAGGAAAGTAATTTGTTACTTCTAATTTGTGTTTTAGAAAGGTTCTGGAGCAGTCTGGAAGATGTAATGGTTGCTTGTCAGCTCATGAGCTGGTGGGGTTGGCTGCT,-0.0842 ratio
ATCTTCCCCCTCTTCCTTGCCCCACCAGCTCACCTACGGGGGTTATTTGCAGATAGGAAAATAAATAAAGCCGGCATTCGTTAACGCAGTTCACGCGCATACTGCTGTTTGCTCTGGATCTAACATGGTCCTTTGGCGAGGCGTGGCTCCGGGAGAGCAAAGCACCGTGTCAGGGCCATGATCCGGGGTGGCC,0.352 ratio
CAGTTTTGCAAAGACGGAGTCCGTCAGAGAAAGCATTTGTTTGATTTCATGCATTTGTGTTTCCTTTGTCCATTTCCTTTATATTTATTTATTAGATTATTTATTTTTTTGAGACGGAGTTTCGATCCTCTCGCCCAGGCTGGAGTGCAATATCGCGATCTCGGCTCACTGCAACCTCCCCCTCCCGGGTTCA,0.378 ratio
ATCTTCCCCCTCTTCCTTGCCCCACCAGCTCACCTTCCCGGGTTATTTGCAGATAGGAAAATAAATAAAAAAAAAATTCGTTAACCCTCTTCTGGCGCAAACTGCTGTTTGCTCTGGATGAATCATGGTCCTTTGGCGACGCCAGGCTCCGGGAGAGCAAAGCACCGTGTCAGGGCCATGATCCGGGGTGGCC,0.322 ratio
AGATGTAAAACAAAATGGATGTAGACAGCCGATTGTAGACGTAAAGCAAAATGGGTGTAGACAGCTAATTGACTCAACCATACTCTGGGCATGTATTTACTCAATGCTACAATGGGCTGAGTCATGCTCGAGGTGCTGGAGAGATTTCTGCCAAGAAAAGAGAGAAAAACCCCTGTCCTCCCACATCTGACGC,0.281 ratio
GAGGACAGAGGGGATAATTTTTCTGCCTACCATAACAATTACCCAAGTAATATACGCAAATGCACCCTGTAGATCACAAAGTATTATACGTATGTAAATAATTTCTATTAGAAAGAACAAGAAAATAATGGTTATGGTTTCACGGTTAATTAGCAGCAGAGCTCATCTCAGCCTCAGTTCTCATAATTACCTG,0.24 ratio
ATCTTCCCCCTCTTCCTTGCCCCACCAGCTCACCTTCCCGGGTTATTTGCACAAAGGAAAATAAATAAAGCCGGCATTCGTTAACGCAGTTCACGCGCATACTGCTGTTTGCTCTGGATCTAACATGGTCCTTTGGCGACGCCAGGCTCCGGGAGAGCAAAGCACCGTGTCAGGGCCATGATCCGGGGTGGCC,0.377 ratio
TAAATGCTAAAGCTGAAATGAACAGGGATGGCAGCTGCTCAGGGAACAATGAAGTGAAGTCAATCCTGAATTCCAACTTGAAAATGTTTAAAGTAAACAAGCAGGATCTAGGAGGTCATCTAGGAGGTCATTTTAAGGAAATGATAAGGAAAGACAAAAGGAAAGAAGAGCAAAACAGCTTTAGAAGTTAGTT,0.399 ratio

# Series 3
# Target: RNA binding protein fox-1 homolog 2, RRM domain, GST-SBP tag (RBFOX2, Homo sapiens, UniProt O43251-10, residues 100-194)
# Method: RNA Bind-n-Seq
# Molecule type: RNA
# Matrix: in vitro
# Concentration: 365 nM
# Setting: natural RNA segment, single round, ends assumed
# Reference: no-protein control
# Direction: higher = stronger binding
# Shared flanks, not repeated: GGGAGUUCUACAGUCCGACGAUC … UGGAAUUCUCGGGUGCCAA
# Target sequence (chain): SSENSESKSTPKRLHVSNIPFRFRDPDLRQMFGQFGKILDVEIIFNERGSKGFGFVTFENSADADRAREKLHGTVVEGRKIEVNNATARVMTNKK
Oligonucleotide,RBNS enrichment (R)
CCACCACGCCAUCAUCGUCACCGUUGACAGAACAGUCCUUAAUCCAGAAAGCCUGACAUGAAGGAAGAGGAGACUCUUCGAGGAGCACUUUGGGUCCGGAGGGCGAGACU,0.537
CAUAACUGAGCUCAAGCUCUUGCCAAACACCAACAAGCAAGAUGGUUGCAACCUGGCAACAUUGAAUCCACCACCCUUGGGCUCCCUCUGGAAGCCCCAGCACCGGGGGG,0.565
GCCUGAGUUGUAAAUCCAAAACAUAUUUUUGUUGGCUUGGGACGUUAGGGGCUUGGGGUUUUCCUGAGGCAAGAGGUCAUGGCUGAAUGGGCCUGUGCCGUGAAUUGAAU,1.84
GCUUUGGGUUUUUAGGGUUUUAAUAGGUAGACUCUGUUCUAUUAUUAGGUGUUAAGAGUUUCCAAACGUGUUUUCUUUUUUCUUUUAUUGUUUGCUUAAACUUUGAAGAA,0.646
UAUCCUUUCUCAUGGAAGCGCGUACCCGUUCGUGGAGGAAACGGAACGGCAGCCCAGCCGUGGGACGGACGUGGACGUUUACUGCAUUCCUGUUUGCCGUGUAAAUGUUA,1.51
UUUCCUGAAGUAUUCUGAUAAAUGUGUUUUUUAAAACCUCAAUAUACUUUUUAGAAAAGGAGCAUCUGGUUAUGCAUAAAGCAGAGCUAAAACUAAAUUUCUUUCAUGUC,0.462
GUCCACUAGAGGCCACUGUCUUCAAAGCUUCUCUCACCCUAGCCAAAGGUCCUAAGAGGAGACAGCUGUGAAGUUGGGCGUGCUCUGUGGUACCAGCUGUGACUUUUCUA,0.234
CAUUUUAGAUUUUAGGUGACUCAUAAUUCCCAUUCACUUAGCCUAUCAGAAAAGUCAUUGGCAGACAUAUAUGUCCUUGAACCUUUUUUAUUUGUGUGGAUUCUGCUCAU,0.372
CCAUCGUUAGGACUCCUGAGUAACCAGGAGUUGCUGACUGUCCCUUCAAGUGACUGUGGCUCCUUUCUCUCCCUGGCCCCUAGUUUCUCCAUCUCCCAGACCAAGGGGGC,0.162
CUGAUUCAGUGCCAAUAGCCACAGUGUGGCUCAAGAUACAGGUAGAGGGGCUACACUAGCCCACCCCAUUUAGAGUGGUCCUGUCUACUCUACAGCAACUCUCUUGGGCU,0.312
CUCCUCUGACUCUAGUGGGAACAGGCCCCAGCUCAGCCUCCGGCAGGGAGGUCACCCCUCCACUUCAGCUUGCCCUGACCUCCGCUCGCAAACCCCGAGCUUCCAAGCCU,0.586
CCCUUCCAUGCCAGCCCUUCCUGCUGCCUCCCUCCUGUCUGGCUCCUGGGGCCCAUGCUUAGAGCCCAGGCUCCAGCCCUGAGUGCUUCCGAGCUGGCGGACUGCCCAGG,0.932

# Series 4
# Target: Sal-like protein 4, full length isoform B (SALL4, Homo sapiens, UniProt Q9UJQ4-2, residues 1-616)
# Method: universal PBM
# Molecule type: double-stranded DNA, one strand shown
# Matrix: in vitro
# Concentration: not given
# Setting: 8-mer, flanks averaged, mean of replicates
# Direction: higher = stronger binding
Oligonucleotide,E-score
AGAGGAGC,-0.149
AGCACTTG,-0.281
AACGTGAA,0.0595
CCTATCAG,-0.0532
AGTACCCC,-0.307
ACTACGGC,-0.234
AGAGAAGA,0.0899
ACGGATGC,0.0372
TCGGACGA,-0.143
GCCAGGAA,-0.0561
AAGGGTAC,0.0605
AAGTACAA,0.201
GCTAGAGA,-0.107
CCCATACC,-0.0557
AAACGCCT,-0.0732
CATTCTCG,-0.0623
CGCCGACA,-0.189
ACGAAGGG,-0.22
AGTAACAC,0.0863
CCCTTAAG,0.0299

# Series 5
# Target: Histone acetyltransferase KAT6A, winged helix 2, GST fusion (KAT6A, Homo sapiens, UniProt Q92794, residues 85-181)
# Method: protein binding microarray
# Molecule type: double-stranded DNA, one strand shown
# Matrix: in vitro
# Concentration: not given
# Setting: 8-mer, flanks averaged, mean of 2 arrays, mostly near background
# Reference: not given
# Direction: higher = stronger binding
# Residues (chain): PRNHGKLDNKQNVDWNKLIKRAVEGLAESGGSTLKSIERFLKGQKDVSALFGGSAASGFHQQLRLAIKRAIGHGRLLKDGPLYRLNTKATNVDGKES
Oligonucleotide,E-score
CTTGCATA,-0.0274
CGTATGAA,0.0727
GTCCGAAC,-0.0259
CAGGTGAG,0.0748
AACGCGAC,-0.0962
CAAAGCAC,0.044
AAGAAAGG,0.0701
GGACCGAA,0.184
ATGCGCGG,0.117
GGAGCGCA,0.0414
CCAAGTAG,0.00226
ACCTGCGT,-0.035
ATACACAG,-0.147
ATACCGGC,0.0774
GCGAATCA,0.112
ATCCTGTG,-0.183
GCAGTGGA,0.149
AATTCAAG,-0.0233
GCCATACC,-0.0633
CCCCCTGC,-0.000455
CTATGAAC,0.123
CTATAAAA,-0.00845
CATGGGTC,-0.24
GTCCCATA,-0.124
GCATAATA,0.0251

# For quick reference, copied from above (series 5):
Oligonucleotide,E-score
CTTGCATA,-0.0274
ATGCGCGG,0.117
GCATAATA,0.0251
GCGAATCA,0.112
ATACACAG,-0.147
